Results gathered from unrelated publications.
Each line is one published result; not all experiments were run side by side.

| SMILES | cell line | assay | conditions | scale | quantity | result |
| --- | --- | --- | --- | --- | --- | --- |
| Cc1ncsc1-c1ccc(C(C)NC(=O)C2CC(O)CN2C(=O)C(NC(=O)CCCCCCCCCCN2CCCC(Nc3ncc(Cl)c(Nc4ccccc4S(=O)(=O)C(C)C)n3)C2)C(C)(C)C)cc1 (stereo not drawn) | 22Rv1 | RNA-seq, item: WDR89 mRNA | concentration not given | baseline: DMSO | log2 fold change | -1.21 |
| Cn1ncc2cc(-c3cncc(Cl)c3N3CCC4(CCNC4=O)CC3)ccc21 | LS174T | gene expression, microarray, item: IGLL1 mRNA | concentration not given, 24 h | baseline: untreated cells | log2 fold change | 2.01 |
| CO[C@@H]1[C@@H](OC(N)=O)[C@@H](O)[C@H](Oc2ccc3c(O)c(NC(=O)c4ccc(O)c(CC=C(C)C)c4)c(=O)oc3c2C)OC1(C)C | HCT-116 parental | – | 300 µM, replicate 2 | – | colony count | 0.1 |
| CCN(CC)CC(=O)Nc1cccc(-n2cc(-c3ccc4ccc(-c5cn(-c6cccc(NC(=O)CN(CC)CC)c6)nn5)cc4c3)nn2)c1 | RCC4 | PCR angiogenesis array, item: EFNA1 | 5 x IC50, 6 h, normoxia | baseline: untreated | fold regulation | -1.51 |
| CCN(C(=O)c1cc(F)ccc1Oc1nncnc1N1CCC2(C1)CN([C@H](CCCN(C)CCOC)C(C)C)C2)C(C)C | EFO-21 | cell growth or viability | 7 days | – | GI50 | > 10 µM |
| CC(C)c1ccc(N(C)c2ccc3c(c2)OCC[C@H]3CNc2cnccc2C(=O)O)cc1 | Malme-3M | cell viability, CellTiter-Glo | 7 days | – | IC50 | ≥ 10 µM |
| COc1ccccc1-c1ccncc1C(=O)Nc1nnc(OCc2ccc(Cl)cc2)s1 | PEO1 BRCA2-mutant | – | 1.00 µM, together with: olaparib 0.125 µM | – | colony survival | 0% |
| CN1CCCNC(=O)c2cccc(c2)C(=O)NCCCN(C)CCCNc2cccc3c2C(=O)c2cccc(c2C3=O)NCCC1 | SAS | RNA-Seq, item: AMN1 mRNA | 1 µM, 6 h | baseline: untreated cells | log2 fold change | -2.65 |
| CNS(=O)(=O)Nc1nccc(Cc2c(C)c3ccc(Oc4ncccc4F)cc3oc2=O)c1F | NCI-H596 | cell viability | 7 days | – | IC50 | 0.843 µM |

Repeated from above:
| SMILES | cell line | assay | conditions | scale | quantity | result |
| --- | --- | --- | --- | --- | --- | --- |
| CO[C@@H]1[C@@H](OC(N)=O)[C@@H](O)[C@H](Oc2ccc3c(O)c(NC(=O)c4ccc(O)c(CC=C(C)C)c4)c(=O)oc3c2C)OC1(C)C | HCT-116 parental | – | 300 µM, replicate 2 | – | colony count | 0.1 |
